# Results gathered from unrelated publications.
# Numbered parts are unrelated; each lists some results of a single study. Values joined by “and” are separate records of one study, mostly repeats; a detail may differ.
# UniProt P08581, sequence (whole entry, looked up): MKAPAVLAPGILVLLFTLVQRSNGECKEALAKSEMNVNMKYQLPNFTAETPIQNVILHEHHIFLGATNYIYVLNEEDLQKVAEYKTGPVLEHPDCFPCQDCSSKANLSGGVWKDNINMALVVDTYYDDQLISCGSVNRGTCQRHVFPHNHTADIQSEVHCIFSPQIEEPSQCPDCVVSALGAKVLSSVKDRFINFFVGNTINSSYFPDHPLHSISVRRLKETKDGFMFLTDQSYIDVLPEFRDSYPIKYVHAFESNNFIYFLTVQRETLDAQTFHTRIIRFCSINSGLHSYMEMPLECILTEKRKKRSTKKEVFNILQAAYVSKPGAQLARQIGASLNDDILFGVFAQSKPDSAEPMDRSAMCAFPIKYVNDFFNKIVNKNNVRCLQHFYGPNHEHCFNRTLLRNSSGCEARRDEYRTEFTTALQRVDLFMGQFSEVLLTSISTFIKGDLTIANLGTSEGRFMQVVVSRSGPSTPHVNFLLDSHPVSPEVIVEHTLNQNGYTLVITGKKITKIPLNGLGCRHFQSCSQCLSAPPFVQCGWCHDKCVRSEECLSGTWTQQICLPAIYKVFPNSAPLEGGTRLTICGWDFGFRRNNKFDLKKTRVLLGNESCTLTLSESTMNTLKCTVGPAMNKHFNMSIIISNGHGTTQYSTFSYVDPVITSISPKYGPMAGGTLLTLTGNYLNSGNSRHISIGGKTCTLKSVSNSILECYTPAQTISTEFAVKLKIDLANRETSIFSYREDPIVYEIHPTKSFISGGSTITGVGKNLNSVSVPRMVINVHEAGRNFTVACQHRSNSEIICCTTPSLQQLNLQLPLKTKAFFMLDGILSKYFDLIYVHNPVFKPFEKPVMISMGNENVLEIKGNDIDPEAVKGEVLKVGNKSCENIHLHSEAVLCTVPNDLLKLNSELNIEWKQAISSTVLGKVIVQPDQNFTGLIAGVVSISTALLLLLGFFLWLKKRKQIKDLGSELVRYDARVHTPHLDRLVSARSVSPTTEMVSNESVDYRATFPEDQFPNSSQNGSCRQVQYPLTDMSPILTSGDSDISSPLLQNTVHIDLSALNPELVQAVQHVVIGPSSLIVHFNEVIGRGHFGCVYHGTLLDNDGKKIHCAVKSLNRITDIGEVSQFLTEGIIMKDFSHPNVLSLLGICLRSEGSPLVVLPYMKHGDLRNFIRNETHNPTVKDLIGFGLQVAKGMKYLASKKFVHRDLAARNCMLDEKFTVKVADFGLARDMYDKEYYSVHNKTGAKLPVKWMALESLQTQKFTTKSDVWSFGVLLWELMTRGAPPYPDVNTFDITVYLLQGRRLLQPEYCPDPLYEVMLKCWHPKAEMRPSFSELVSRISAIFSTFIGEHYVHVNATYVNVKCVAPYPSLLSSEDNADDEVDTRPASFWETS
# UniProt P32298, sequence (whole entry, looked up): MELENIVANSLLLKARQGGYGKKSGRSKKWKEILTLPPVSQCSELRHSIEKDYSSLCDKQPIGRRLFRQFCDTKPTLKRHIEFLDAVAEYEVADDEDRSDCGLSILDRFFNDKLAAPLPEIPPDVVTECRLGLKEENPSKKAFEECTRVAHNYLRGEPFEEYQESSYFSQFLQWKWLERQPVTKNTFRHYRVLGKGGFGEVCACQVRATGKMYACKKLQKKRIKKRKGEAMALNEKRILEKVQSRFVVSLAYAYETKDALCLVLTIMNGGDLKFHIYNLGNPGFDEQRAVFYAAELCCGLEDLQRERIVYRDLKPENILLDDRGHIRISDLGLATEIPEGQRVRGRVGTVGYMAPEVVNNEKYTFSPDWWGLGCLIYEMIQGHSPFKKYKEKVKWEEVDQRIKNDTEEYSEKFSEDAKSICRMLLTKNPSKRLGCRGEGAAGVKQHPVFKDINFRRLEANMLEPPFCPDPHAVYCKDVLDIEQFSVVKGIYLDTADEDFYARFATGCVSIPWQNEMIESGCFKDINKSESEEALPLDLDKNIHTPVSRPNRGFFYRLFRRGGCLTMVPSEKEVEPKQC
# UniProt P50750, sequence (whole entry, looked up): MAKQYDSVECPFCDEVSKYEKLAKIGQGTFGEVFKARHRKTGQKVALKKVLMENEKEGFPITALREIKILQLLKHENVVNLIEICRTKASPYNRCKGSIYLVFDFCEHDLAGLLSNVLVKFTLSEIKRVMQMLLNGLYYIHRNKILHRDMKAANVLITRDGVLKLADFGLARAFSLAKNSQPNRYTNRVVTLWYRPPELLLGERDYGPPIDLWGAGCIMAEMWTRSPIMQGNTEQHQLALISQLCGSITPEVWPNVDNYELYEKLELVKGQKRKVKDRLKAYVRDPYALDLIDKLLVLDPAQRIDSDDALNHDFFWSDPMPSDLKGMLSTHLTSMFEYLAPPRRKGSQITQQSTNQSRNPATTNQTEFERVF

# Series 1 — organism: Plasmodium berghei; mode: inhibitor; cells: Huh-7; strain: GFP-expressing sporozoites, liver stage; tested at: 10 µM; time: 24 h; reference: untreated control
SMILES,infection rate
Cn1nnnc1SCC1=C(C(=O)O)N2C(=O)[C@@H](NC(=O)[C@H](O)c3ccccc3)[C@H]2SC1,91.6%
c1ccc(CN(CC2=NCCN2)c2ccccc2)cc1,83.6%
C[C@@H]1CC2C3CCC4=CC(=O)C=C[C@]4(C)[C@@]3(F)[C@@H](O)C[C@]2(C)[C@H]1C(=O)CO (stereo partly shown),113%
O=c1ccc2ccccc2o1,27.7%
CO/N=C(\C(=O)N[C@@H]1C(=O)N2C(C(=O)OCOC(=O)C(C)(C)C)=C(/C=C\c3scnc3C)CS[C@H]12)c1csc(N)n1,57.5%

# Series 2 — effect on: enzyme activity; mode: inhibitor; tested at: 77 µM; reference: untreated
# Target: DNA polymerase theta, ATPase domain (POLQ, Homo sapiens, UniProt O75417)
# UniProt O75417, sequence (whole entry, unmodified, looked up): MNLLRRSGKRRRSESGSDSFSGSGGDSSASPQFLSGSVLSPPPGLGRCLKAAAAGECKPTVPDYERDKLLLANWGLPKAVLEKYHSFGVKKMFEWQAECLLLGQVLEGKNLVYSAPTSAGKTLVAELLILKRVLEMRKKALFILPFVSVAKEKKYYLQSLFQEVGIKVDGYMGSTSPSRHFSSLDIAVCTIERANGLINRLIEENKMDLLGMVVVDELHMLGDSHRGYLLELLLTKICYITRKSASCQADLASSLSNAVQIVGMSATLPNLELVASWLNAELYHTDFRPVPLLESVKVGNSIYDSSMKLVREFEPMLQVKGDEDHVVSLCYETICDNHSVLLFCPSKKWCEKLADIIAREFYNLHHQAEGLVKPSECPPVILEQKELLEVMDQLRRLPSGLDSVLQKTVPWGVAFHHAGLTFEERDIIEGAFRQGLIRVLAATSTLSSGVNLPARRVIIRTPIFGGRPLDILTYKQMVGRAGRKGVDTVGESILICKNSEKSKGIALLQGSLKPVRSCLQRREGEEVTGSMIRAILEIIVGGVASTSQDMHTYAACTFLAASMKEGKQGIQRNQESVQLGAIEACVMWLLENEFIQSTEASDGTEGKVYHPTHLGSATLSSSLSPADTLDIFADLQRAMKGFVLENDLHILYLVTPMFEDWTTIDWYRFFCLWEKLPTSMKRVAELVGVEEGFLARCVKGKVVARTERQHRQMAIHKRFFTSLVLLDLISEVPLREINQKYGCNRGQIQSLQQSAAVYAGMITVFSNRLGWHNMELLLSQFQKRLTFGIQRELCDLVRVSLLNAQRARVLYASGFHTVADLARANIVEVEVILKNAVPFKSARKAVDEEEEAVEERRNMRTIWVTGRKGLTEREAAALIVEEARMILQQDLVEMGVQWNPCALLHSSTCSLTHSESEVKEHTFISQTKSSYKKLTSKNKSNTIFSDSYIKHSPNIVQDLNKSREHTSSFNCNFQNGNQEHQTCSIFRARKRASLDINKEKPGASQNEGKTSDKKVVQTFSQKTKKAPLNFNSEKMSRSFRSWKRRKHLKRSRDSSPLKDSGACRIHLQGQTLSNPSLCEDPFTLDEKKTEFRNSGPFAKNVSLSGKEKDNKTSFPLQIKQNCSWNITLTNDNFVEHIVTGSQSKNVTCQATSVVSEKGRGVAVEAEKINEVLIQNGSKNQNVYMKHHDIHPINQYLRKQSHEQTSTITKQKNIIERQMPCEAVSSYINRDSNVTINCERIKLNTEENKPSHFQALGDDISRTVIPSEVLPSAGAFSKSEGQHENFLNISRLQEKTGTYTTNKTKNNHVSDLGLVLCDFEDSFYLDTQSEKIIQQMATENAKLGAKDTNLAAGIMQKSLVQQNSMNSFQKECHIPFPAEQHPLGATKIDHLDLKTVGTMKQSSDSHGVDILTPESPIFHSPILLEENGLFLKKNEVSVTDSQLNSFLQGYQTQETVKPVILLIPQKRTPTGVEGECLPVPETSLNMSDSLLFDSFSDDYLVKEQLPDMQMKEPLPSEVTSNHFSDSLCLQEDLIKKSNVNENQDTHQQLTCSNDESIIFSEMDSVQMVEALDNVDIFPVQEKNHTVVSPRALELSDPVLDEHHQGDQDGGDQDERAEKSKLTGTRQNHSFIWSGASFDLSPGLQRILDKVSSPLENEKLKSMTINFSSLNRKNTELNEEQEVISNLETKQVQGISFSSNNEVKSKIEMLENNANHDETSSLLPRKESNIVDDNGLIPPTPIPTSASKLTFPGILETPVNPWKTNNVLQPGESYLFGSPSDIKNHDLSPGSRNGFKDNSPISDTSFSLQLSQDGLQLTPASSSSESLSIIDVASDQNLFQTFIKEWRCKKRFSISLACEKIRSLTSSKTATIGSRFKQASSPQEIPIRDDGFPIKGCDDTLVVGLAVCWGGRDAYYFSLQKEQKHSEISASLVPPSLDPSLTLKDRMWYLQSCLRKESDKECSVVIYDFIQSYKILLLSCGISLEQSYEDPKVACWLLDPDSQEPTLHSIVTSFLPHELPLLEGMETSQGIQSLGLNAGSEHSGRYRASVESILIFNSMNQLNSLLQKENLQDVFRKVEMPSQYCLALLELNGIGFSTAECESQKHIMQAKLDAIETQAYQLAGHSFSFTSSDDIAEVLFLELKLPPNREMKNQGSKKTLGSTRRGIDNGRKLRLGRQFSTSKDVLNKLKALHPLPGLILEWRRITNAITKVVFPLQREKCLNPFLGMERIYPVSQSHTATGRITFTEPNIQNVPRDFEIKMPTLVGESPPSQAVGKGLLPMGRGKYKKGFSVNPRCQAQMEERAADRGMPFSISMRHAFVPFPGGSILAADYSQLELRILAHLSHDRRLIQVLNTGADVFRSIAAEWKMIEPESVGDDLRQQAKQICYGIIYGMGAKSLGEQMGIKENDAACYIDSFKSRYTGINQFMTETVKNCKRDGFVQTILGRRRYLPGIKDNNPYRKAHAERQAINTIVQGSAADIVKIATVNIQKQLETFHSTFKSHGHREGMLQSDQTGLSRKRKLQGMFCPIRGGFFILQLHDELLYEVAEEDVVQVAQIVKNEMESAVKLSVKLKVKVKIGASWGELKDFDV
Compound,remaining activity
O=c1[nH]c2ccccc2c2ccccc12,107%
Cc1[nH]c(/C=C2\C(=O)Nc3ccc(S(=O)(=O)Cc4c(Cl)cccc4Cl)cc32)c(C)c1C(=O)N1CCC[C@@H]1CN1CCCC1,116%
N[C@@H]1[C@H]2CN(c3nc4c(cc3F)c(=O)c(C(=O)O)cn4-c3ccc(F)cc3F)C[C@@H]12,97.4%
Cc1nc2c(OCc3ccccc3)cccn2c1CC#N,106%
COc1ccc2cc1Oc1ccc(cc1)C[C@H]1c3cc(c(OC)cc3CCN1C)Oc1c(OC)c(OC)cc3c1[C@H](C2)N(C)CC3,101% and 88.2%

# Series 3 — effect on: cell-free assay; technique: competition with immobilised ligand; tested at: 1 µM
# SMILES: CCOCCn1cc(C(=O)Nc2ccc(-n3nc(-c4cccnc4)cc3C(F)(F)F)cn2)ccc1=O
target,remaining binding [%]
"cGMP-dependent protein kinase 1 (PRKG1, Homo sapiens, UniProt Q13976)",98
"Epidermal growth factor receptor (EGFR, Homo sapiens, UniProt P00533, del752-759)",100
"Serine/threonine-protein kinase PLK2 (PLK2, Homo sapiens, UniProt Q9NYY3)",88
"Dual specificity protein kinase CLK1 (CLK1, Homo sapiens, UniProt P49759)",100
"Serine/threonine-protein kinase Sgk3 (SGK3, Homo sapiens, UniProt Q96BR1)",65
"Calcium/calmodulin-dependent protein kinase type II subunit alpha (CAMK2A, Homo sapiens, UniProt Q9UQM7)",93
"Serine/threonine-protein kinase PAK 2 (PAK2, Homo sapiens, UniProt Q13177)",84
"Hepatocyte growth factor receptor (MET, Homo sapiens, UniProt P08581)",95

# Series 4 — SMILES: Clc1ccc(Nc2nnc(Cc3ccncc3)c3ccccc23)cc1; effect on: enzyme activity; mode: inhibitor; tested at: 0.5 µM; reference: control
target,remaining activity
"Serine/threonine-protein kinase Nek3 (NEK3, Homo sapiens, UniProt P51956)",94.1%
"cGMP-dependent protein kinase 2 (PRKG2, Homo sapiens, UniProt Q13237)",101%
"G protein-coupled receptor kinase 4 (GRK4, Homo sapiens, UniProt P32298)",91.3%
"Misshapen-like kinase 1 (MINK1, Homo sapiens, UniProt Q8N4C8)",104%
"Serine/threonine-protein kinase PLK3 (PLK3, Homo sapiens, UniProt Q9H4B4)",100%
"Tyrosine-protein kinase TXK (TXK, Homo sapiens, UniProt P42681)",110%
"Cyclin-dependent kinase 1, with cyclin A (CDK1, Homo sapiens, UniProt P06493)",105%
"Cyclin-dependent kinase 9, with cyclin K (CDK9, Homo sapiens, UniProt P50750)",104%
"Myosin-IIIb (MYO3B, Homo sapiens, UniProt Q8WXR4)",102%
"Dual specificity protein kinase CLK4 (CLK4, Homo sapiens, UniProt Q9HAZ1)",108%
"Serine/threonine-protein kinase tousled-like 2 (TLK2, Homo sapiens, UniProt Q86UE8)",102%
"Hepatocyte growth factor receptor (MET, Homo sapiens, UniProt P08581)",94%
"Rho-associated protein kinase 1 (ROCK1, Homo sapiens, UniProt Q13464)",110%
"Dual specificity mitogen-activated protein kinase kinase 1 (MAP2K1, Homo sapiens, UniProt Q02750)",100%
"Calcium/calmodulin-dependent protein kinase type 1B (PNCK, Homo sapiens, UniProt Q6P2M8)",103%
"Mitogen-activated protein kinase 14 (MAPK14, Homo sapiens, UniProt Q16539)",98.2%
"MAP/microtubule affinity-regulating kinase 4 (MARK4, Homo sapiens, UniProt Q96L34)",104%
"Mitogen-activated protein kinase 1 (MAPK1, Homo sapiens, UniProt P28482)",87.6%
"Serine/threonine-protein kinase DCLK2 (DCLK2, Homo sapiens, UniProt Q8N568)",100%
"Serine/threonine-protein kinase MARK2 (MARK2, Homo sapiens, UniProt Q7KZI7)",133%
"Mitogen-activated protein kinase 11 (MAPK11, Homo sapiens, UniProt Q15759)",96.9%
"Discoidin domain-containing receptor 2 (DDR2, Homo sapiens, UniProt Q16832)",97.1%
"RAC-beta serine/threonine-protein kinase (AKT2, Homo sapiens, UniProt P31751)",104%

# Series 5 — species: human; sample: microsomes or S9; tested at: 2 µM; time: 0.5 h
SMILES,remaining compound [%]
CCOC(=O)c1c(=O)n(-c2ccc(C)cc2)nc2ccccc12,0.454
OCCNc1nc(Nc2ccc(Cl)cc2)c2nc[nH]c2n1,51.8
COc1cc(NC(=O)c2cnn(-c3ccc(C)cc3C)c2C2CCNCC2)cc(OC)c1OC,92.8
O=C1CCCC2=C1C(c1ccc3c(c1)OCO3)Nc1ccc(C(=O)c3ccccc3)cc1N2 (stereo not shown),18.6
Cc1ccccc1S(=O)(=O)Nc1ccc2nc(N3CCN(CC(=O)NC(C)(C)C)CC3)cc(C(=O)O)c2c1,> 99

# Some of these lines once more (series 2):
Compound,remaining activity
Cc1[nH]c(/C=C2\C(=O)Nc3ccc(S(=O)(=O)Cc4c(Cl)cccc4Cl)cc32)c(C)c1C(=O)N1CCC[C@@H]1CN1CCCC1,116%
N[C@@H]1[C@H]2CN(c3nc4c(cc3F)c(=O)c(C(=O)O)cn4-c3ccc(F)cc3F)C[C@@H]12,97.4%
Cc1nc2c(OCc3ccccc3)cccn2c1CC#N,106%
COc1ccc2cc1Oc1ccc(cc1)C[C@H]1c3cc(c(OC)cc3CCN1C)Oc1c(OC)c(OC)cc3c1[C@H](C2)N(C)CC3,101% and 88.2%
